Published values of several laboratories.
“And” joins repeats or separate records; there may be more than shown.
Cell line: HepG2

Compound | assay | setting | how to read | measurement | result
CC[C@@]1(O)C(=O)OCc2c1cc1n(c2=O)Cc2cc3cc(OC(=O)CCCC(=O)NCC(=O)N[C@@H](Cc4ccccc4)C(=O)N[C@@H](Cc4ccccc4)C(=O)N[C@@H](Cc4ccc(O)cc4)C(=O)NCCSSCCNC(=O)CCC(=O)N[C@@H](CCC(=O)O)C(=O)N[C@@H](CCCNC(=N)N)C(=O)NCC(=O)N[C@@H](CC(=O)O)C(=O)O)ccc3nc2-1 | annexin V/PI flow cytometry | 200 nM, 48 h | – | apoptotic cells | ~30%
O=C1C=CC(=O)c2c(O)ccc(O)c21 | cytotoxicity, MTT | – | reference: IC50 MRC5 over IC50 HepG2 | selectivity ratio | 4.69
CCOc1cccc2c1[O][Pt-2]1([Cl])[N+](=C2)Cc2cccc[n+]21 (stereo not shown) | flow cytometry PI | concentration not given, 24 h | – | sub-G1 cells | 60 to 65%
CC(=O)N[C@@H](CCCCN)C(=O)N[C@H](C(=O)NCC(=O)N[C@@H](CC(=O)O)C(=O)N[C@@H](CCC(=O)O)C(=O)N[C@@H](CCCCN)C(=O)N[C@@H](CCCCN)C(=O)NCC(=O)NCC(=O)N[C@@H](Cc1ccc(O)cc1)C(=O)NCC(=O)N[C@@H](CCCNC(=N)N)C(=O)N[C@@H](CCCCN)C(=O)N[C@@H](CCCCN)C(=O)N[C@@H](CCCNC(=N)N)C(=O)N[C@@H](CCCNC(=N)N)C(=O)N[C@@H](CCC(N)=O)C(=O)N[C@@H](CCCNC(=N)N)C(=O)N[C@@H](CCCNC(=N)N)C(=O)N[C@@H](CCCNC(=N)N)C(N)=O)[C@@H](C)O | apoptosis, flow cytometry | 40 µM, 16 h | – | caspase-3 positive cells | 1.07%
CC[C@@]1(O)C(=O)OCc2c1cc1n(c2=O)Cc2cc3cc(OC(=O)CCCC(=O)NCC(=O)N[C@@H](Cc4ccccc4)C(=O)N[C@@H](Cc4ccccc4)C(=O)N[C@@H](Cc4ccc(OP(=O)(O)O)cc4)C(=O)NCCSSCCNC(=O)CCC(=O)N[C@@H](CCC(=O)O)C(=O)N[C@@H](CCCNC(=N)N)C(=O)NCC(=O)N[C@@H](CC(=O)O)C(=O)O)ccc3nc2-1 | annexin V/PI flow cytometry | 200 nM, 48 h | – | necrotic cells | 2.44%
CCCCCCCC(=O)NC(C)(C)C(=O)NCC(=O)N[C@@H](CC(C)C)C(=O)NC(C)(C)C(=O)NCC(=O)NCC(=O)N[C@H](C(=O)NC(C)(C)C(=O)NCC(=O)N[C@H](C(=O)N[C@H](CO)CC(C)C)[C@@H](C)CC)C(C)C | cytotoxicity, MTS | 48 h | – | EC50 | > 25 µM
Cc1ccc(Nc2ncc3c(n2)N(C)C(=O)N(c2cc(NC(=O)c4cc(-n5cnc(C)c5)cc(C(F)(F)F)c4)ccc2C)C3)cn1 | cell growth or viability, ATP luminescence | 72 h | – | GI50 | 0.879 µM
C[C@@H](O)[C@H](NC(=O)[C@H](CCCCN)NC(=O)CCCC(=O)O)C(=O)NCC(=O)N[C@@H](CC(=O)O)C(=O)N[C@@H](CCC(=O)O)C(=O)N[C@@H](CCCCN)C(=O)N[C@@H](CCCCN)C(=O)NCC(=O)NCC(=O)N[C@@H](Cc1ccc(O)cc1)C(=O)NCC(=O)N[C@@H](CCCNC(=N)N)C(=O)N[C@@H](CCCCN)C(=O)N[C@@H](CCCCN)C(=O)N[C@@H](CCCNC(=N)N)C(=O)N[C@@H](CCCNC(=N)N)C(=O)N[C@@H](CCC(N)=O)C(=O)N[C@@H](CCCNC(=N)N)C(=O)N[C@@H](CCCNC(=N)N)C(=O)N[C@@H](CCCNC(=N)N)C(N)=O | apoptosis, flow cytometry | 40 µM, 16 h | – | caspase-3 positive cells | 0.88%
CC[C@H](C)[C@H](NC(=O)[C@H](C)NC(=O)[C@@H]1CCCN1C(=O)C(C)(C)NC(=O)[C@H](CC(C)C)NC(=O)[C@H](CC(N)=O)NC(=O)[C@@](C)(CC)NC(C)=O)C(=O)NC(C)(C)C(=O)N1CCC[C@H]1C(=O)N[C@](C)(CC)C(=O)N[C@@H](CC(C)C)C(=O)NC(C)(C)C(=O)N1CCC[C@H]1C(=O)N[C@H](CO)CC(C)C | cytotoxicity, MTS | 48 h | – | EC50 | > 25 µM
O=C1CC2(C1)C(=O)[O][Pt]1([Cl])([O]C(=O)C(Cl)Cl)([NH][C@@H]3CCCC[C@H]3[NH]1)[O]C2=O | annexin V-FITC/PI flow cytometry | 50 µM, 24 h | – | early apoptotic cells | 25%
CC[C@H](C)[C@H](NC(=O)[C@H](C)NC(=O)[C@@H]1CCCN1C(=O)C(C)(C)NC(=O)[C@H](CC(C)C)NC(=O)[C@H](CCC(N)=O)NC(=O)C(C)(C)NC(C)=O)C(=O)NC(C)(C)C(=O)N1CCC[C@H]1C(=O)NC(C)(C)C(=O)N[C@@H](CC(C)C)C(=O)NC(C)(C)C(=O)N1CCC[C@H]1C(=O)N[C@H](CO)CC(C)C | cytotoxicity, MTS | 48 h | – | EC50 | > 25 µM
CC[C@@]1(O)C(=O)OCc2c1cc1n(c2=O)Cc2cc3cc(OC(=O)CCCC(=O)NCC(=O)N[C@@H](Cc4ccccc4)C(=O)N[C@@H](Cc4ccccc4)C(=O)N[C@@H](Cc4ccc(OP(=O)(O)O)cc4)C(=O)NCC(=O)N[C@@H](CCC(=O)O)C(=O)N[C@@H](CCCNC(=N)N)C(=O)NCC(=O)N[C@@H](CC(=O)O)C(=O)O)ccc3nc2-1 | annexin V/PI flow cytometry | 200 nM, 48 h | – | apoptotic cells | ~30%
CC[C@H](C)[C@H](NC(=O)[C@H](CO)NC(=O)[C@@H]1CCCN1C(=O)C(C)(C)NC(=O)[C@H](CC(C)C)NC(=O)[C@H](CC(N)=O)NC(=O)[C@@](C)(CC)NC(C)=O)C(=O)NC(C)(C)C(=O)N1CCC[C@H]1C(=O)N[C@](C)(CC)C(=O)N[C@@H](CC(C)C)C(=O)NC(C)(C)C(=O)N1CCC[C@H]1C(=O)N[C@H](CO)CC(C)C | cytotoxicity, MTS | 48 h | – | EC50 | > 25 µM
CC(=O)N[C@H](C(=O)N[C@@H](C)C(=O)N[C@@H](CCC(N)=O)C(=O)N[C@@H](CCC(N)=O)C(=O)N[C@@H](C)C(=O)N[C@@H](C)C(=O)N[C@@H](CC(N)=O)C(=O)N[C@H](C(=O)N[C@@H](C)C(=O)N[C@@H](C)C(=O)N[C@H](C(=O)N[C@@H](CC(C)C)C(=O)N[C@@H](CCCCN)C(=O)N[C@@H](CC(N)=O)C(=O)N[C@@H](CO)C(=O)N[C@@H](CCCNC(=N)N)C(=O)N[C@@H](CO)C(=O)N[C@@H](CC(C)C)C(=O)NCC(=O)N[C@@H](CCC(=O)O)C(=O)N[C@@H](CC(N)=O)C(=O)N[C@@H](CC(=O)O)C(=O)N[C@@H](CC(=O)O)C(=O)NCC(=O)N[C@@H](CC(N)=O)C(=O)N[C@@H](CC(N)=O)C(=O)N[C@@H](CCC(=O)O)C(=O)N[C@@H](CC(=O)O)C(=O)N[C@@H](CC(N)=O)C(=O)N[C@@H](CCC(=O)O)C(=O)N[C@@H](CCCCN)C(=O)N[C@@H](CC(C)C)C(=O)N[C@@H](CCCNC(=N)N)C(N)=O)[C@@H](C)O)C(C)C)C(C)C | – | concentration not given | reference: control | ATPase activity | decreased
CCCCCCCC(=O)NC(C)(C)C(=O)NCC(=O)N[C@@H](CC(C)C)C(=O)NC(C)(C)C(=O)NCC(=O)NCC(=O)N[C@@H](CC(C)C)C(=O)NC(C)(C)C(=O)NCC(=O)N[C@@H](CC(C)C)C(=O)N[C@H](CO)CC(C)C | cytotoxicity, MTS | 48 h | – | EC50 | > 25 µM
O=C1/C(=C/c2ccc3c(c2)OCCO3)SC(=S)N1[C@@H]1O[C@H](CO)[C@@H](O)[C@H](O)[C@H]1O | measured: Bax | IC50, 48 h | reference: untreated | mRNA fold change | 8.94 fold and 8.9 fold

Excerpt of the above:
Compound | assay | setting | how to read | measurement | result
CC[C@H](C)[C@H](NC(=O)[C@H](C)NC(=O)[C@@H]1CCCN1C(=O)C(C)(C)NC(=O)[C@H](CC(C)C)NC(=O)[C@H](CC(N)=O)NC(=O)[C@@](C)(CC)NC(C)=O)C(=O)NC(C)(C)C(=O)N1CCC[C@H]1C(=O)N[C@](C)(CC)C(=O)N[C@@H](CC(C)C)C(=O)NC(C)(C)C(=O)N1CCC[C@H]1C(=O)N[C@H](CO)CC(C)C | cytotoxicity, MTS | 48 h | – | EC50 | > 25 µM
O=C1CC2(C1)C(=O)[O][Pt]1([Cl])([O]C(=O)C(Cl)Cl)([NH][C@@H]3CCCC[C@H]3[NH]1)[O]C2=O | annexin V-FITC/PI flow cytometry | 50 µM, 24 h | – | early apoptotic cells | 25%
